{"data": "Measurements of several laboratories", "note": "Compare with care: the assays were run in different laboratories."}
{"host": "CD-1 mouse", "medium": "plasma", "route": "intraperitoneal", "dose": "10 mg/kg", "Tmax [min]": 30, "SMILES": "O=C(NCCCCc1ccccc1)n1c(=O)oc2cc(-c3ccc(F)cc3)ccc21"}
{"host": "male mouse", "medium": "plasma", "route": "oral", "dose": "10 mg/kg", "Tmax [min]": 240, "SMILES": "CCOC(=O)c1nc2cc(Cl)c(Cl)cc2nc1N1CCN(C(=O)Nc2ccc(N3CCNCC3)cc2)CC1"}
{"host": "male C57BL/6 mouse", "medium": "lung", "route": "intravenous", "dose": "5 mg/kg", "Tmax [min]": 30, "SMILES": "C/C(N)=N/C(=N\\S(=O)(=O)c1ccc(C(F)(F)F)cc1)N1C[C@H](c2ccccc2)C(c2ccc(Cl)cc2)=N1"}
{"host": "male SCID mouse", "medium": "brain", "route": "oral", "dose": "10 mg/kg", "Tmax [min]": 240, "SMILES": "O=C(OC(C(F)(F)F)C(F)(F)F)N1CCC(CNS(=O)(=O)c2ccc(Cl)cc2)CC1"}
{"host": "female C57BL/6 mouse", "medium": "plasma", "route": "intraperitoneal", "dose": "45 mg/kg", "setting": "single dose", "Tmax [min]": 60, "SMILES": "CC(=O)N1c2ccc(-c3ccc(CNC(=O)c4cn5cc(-c6cnc(N)nc6)nc(N6CCOCC6)c5n4)cc3)cc2CC[C@@H]1C"}
{"host": "mouse", "medium": "plasma", "route": "intraperitoneal", "dose": "10 mg/kg", "Tmax [min]": 4.98, "SMILES": "COc1ccccc1/C=C/CNCC(O)COc1ccc(Nc2ccccc2)cc1 (racemic)"}
{"host": "male CD-1 mouse", "medium": "plasma", "route": "oral", "dose": "50 mg/kg", "Tmax [min]": 48, "SMILES": "CCn1cc(-c2cc(Cn3ccnc3)cc3c2CCN([C@H](c2cc(OC)ccn2)C2CC2)C3=O)c(C(F)(F)F)n1"}
{"host": "C57BL/6 mouse", "medium": "plasma", "route": "intraperitoneal", "dose": "25 mg/kg", "Tmax [min]": 30, "SMILES": "O=C(c1ccccc1)N1C(c2ccc(OCC3CCN(CCCF)C3)cc2)c2ccc(O)cc2CC12CC2 (stereo not drawn)"}
{"host": "male C57BL/6 mouse", "medium": "brain", "route": "oral", "dose": "3 mg/kg", "Tmax [min]": 120, "SMILES": "OCC1OC(n2cnc3c(NCc4ccc(Br)s4)ncnc32)C(O)C1O (stereo not drawn)"}
{"host": "male CD-1 mouse", "medium": "intestine", "route": "intraperitoneal", "dose": "25 mg/kg", "setting": "single dose", "Tmax [min]": 120, "SMILES": "Fc1cccc(-n2cc(-c3ccccc3)nc2NCc2ccc(C(F)(F)F)c(Br)c2)c1"}
{"host": "CD-1 mouse", "medium": "plasma", "route": "oral", "dose": "30 mg/kg", "Tmax [min]": 79.8, "SMILES": "O=C1CCC(N2C(=O)c3ccc(N4CCC(C(=O)N5CCC(CCN6CCC(CNC(=O)c7cccc(-c8noc(C(F)(F)F)n8)c7)(c7nc(-c8ccccc8)cs7)CC6)CC5)CC4)cc3C2=O)C(=O)N1 (stereo not drawn)"}
{"host": "female C57BL/6 mouse", "medium": "plasma", "route": "oral", "dose": "25 mg/kg", "Tmax [min]": 30, "SMILES": "CC[C@H](C)/C=C/C=C/C=C/C(O)=C/C(=O)C(F)(F)Cl"}
{"host": "male CD-1 mouse", "medium": "plasma", "route": "intraperitoneal", "dose": "25 mg/kg", "setting": "single dose", "Tmax [min]": 30, "SMILES": "Fc1cccc(-n2cc(-c3ccccc3)nc2NCc2ccc(C(F)(F)F)c(F)c2)c1"}
{"host": "male BALB/c mouse", "medium": "plasma", "route": "intraperitoneal", "dose": "50 mg/kg", "setting": "single dose", "Tmax [min]": 30, "SMILES": "Cn1c2cc([S+](C)[O-])sc2c2cnn(Cc3cccc(N)c3)c(=O)c21 (stereo not drawn)"}
{"host": "C57BL/6 mouse", "medium": "blood", "route": "intravenous", "dose": "0.5 mg/kg", "Tmax [min]": 5, "SMILES": "Cn1ccc(-c2cc(Cl)c(Cl)c3[nH]c4c(c23)CN(C(=O)CO)CC4)n1"}
{"host": "male C57BL/6 mouse", "medium": "plasma", "route": "subcutaneous", "dose": "5 mg/kg", "setting": "single dose", "Tmax [min]": 240, "SMILES": "Cc1ncsc1-c1ccc(CNC(=O)[C@@H]2C[C@@H](O)CN2C(=O)[C@@H](NC(=O)COCC(C)(COCCOCCOCCNC(=O)C[C@@H]2N=C(c3ccc(Cl)cc3)c3c(sc(C)c3C)-n3c(C)nnc32)COCCOCCOCCNC(=O)C[C@@H]2N=C(c3ccc(Cl)cc3)c3c(sc(C)c3C)-n3c(C)nnc32)C(C)(C)C)cc1"}
{"host": "mouse", "medium": "plasma", "route": "oral", "dose": "30 mg/kg", "Tmax [min]": 240, "SMILES": "O=S(=O)(Nc1ccc(OC(F)(F)F)cc1)N1CCCC(C2c3ccc(F)cc3CCc3cc(F)ccc32)C1 (stereo not drawn)"}
{"host": "male CD-1 mouse", "medium": "plasma", "route": "intraperitoneal", "dose": "10 mg/kg", "Tmax [min]": 30, "SMILES": "COc1cnc2cccc(N3CCc4c(cc(Cn5ccnc5)cc4-c4cn(C)nc4C(F)(F)F)C3=O)c2c1"}
{"host": "mouse", "medium": "plasma", "route": "oral", "dose": "1 mg/kg", "Tmax [min]": 15, "SMILES": "Cc1cc(C(=O)N[C@@H](CC(=O)NC(C)(C)C)C(=O)NCCNC(=O)c2cccc(-n3cccn3)c2)no1"}
{"host": "C57BL/6 mouse", "medium": "blood", "route": "oral", "dose": "10 mg/kg", "Tmax [min]": 30, "SMILES": "O=C(O)c1ccc(/C=C2\\SC(=S)N(Cc3cccc(C(F)(F)F)c3)C2=O)cc1"}
{"host": "male C57BL/6 mouse", "medium": "plasma", "route": "intraperitoneal", "dose": "20 mg/kg", "Tmax [min]": 19.8, "SMILES": "C[C@@]1(c2nc(-c3ccc(F)c4cn[nH]c34)no2)CCCN(C(=O)c2ccc(F)nc2)C1"}
{"host": "female nude mouse", "medium": "plasma", "route": "oral", "dose": "30 mg/kg", "setting": "single dose", "Tmax [min]": 60, "SMILES": "Cc1cc(NC(=O)[C@H](O)c2cc(F)cc(F)c2)ccc1-c1cnc(N)c(C(=O)NC(C)C)c1"}
{"host": "mouse", "medium": "plasma", "route": "oral", "dose": "30 mg/kg", "Tmax [min]": 282, "SMILES": "O=S(=O)(N[C@H]1CCO[C@@H](C2c3ccc(F)cc3CCc3cc(F)ccc32)C1)c1ccc(OC(F)(F)F)cc1"}
{"host": "CD-1 mouse", "medium": "plasma", "route": "oral", "dose": "10 mg/kg", "Tmax [min]": 15, "SMILES": "COC1C(c2ccc(Cl)c(Cc3ccc(OC4CCOC4)cc3)c2)OC(CO)C(O)C1O (stereo not drawn)"}
{"host": "C57BL/6 mouse", "medium": "blood", "route": "oral", "dose": "20 mg/kg", "Tmax [min]": 25, "SMILES": "Nc1ccc(-c2cc(Cl)c(Cl)c3[nH]c4c(c23)CN(C(=O)CO)CC4)cn1"}
{"host": "CD-1 mouse", "medium": "plasma", "route": "oral", "dose": "10 mg/kg", "Tmax [min]": 5.88, "SMILES": "Fc1cncc(-c2ccc3[nH]c4ncnc(N[C@H]5CC[C@H](N6CCOCC6)CC5)c4c3c2)c1"}
{"host": "C57BL/6 mouse", "medium": "plasma", "route": "oral", "dose": "5 mg/kg", "Tmax [min]": 240, "SMILES": "C[C@@H](Nc1nc2c(cnn2C(C)(C)C)c(=O)n1Cc1cccc(F)c1)c1ccc(Cl)cc1"}
